Measurements gathered from unrelated publications.
A part holds a random share of what one study measured. Changes are numbered by the printed parent chain.

Set 1
Target: RING finger protein unkempt homolog, zinc fingers 1-6, SBP tag (UNK, Homo sapiens, UniProt Q9C0B0, residues 30-357)
Sequence of UniProt Q9C0B0 (30-357, looked up): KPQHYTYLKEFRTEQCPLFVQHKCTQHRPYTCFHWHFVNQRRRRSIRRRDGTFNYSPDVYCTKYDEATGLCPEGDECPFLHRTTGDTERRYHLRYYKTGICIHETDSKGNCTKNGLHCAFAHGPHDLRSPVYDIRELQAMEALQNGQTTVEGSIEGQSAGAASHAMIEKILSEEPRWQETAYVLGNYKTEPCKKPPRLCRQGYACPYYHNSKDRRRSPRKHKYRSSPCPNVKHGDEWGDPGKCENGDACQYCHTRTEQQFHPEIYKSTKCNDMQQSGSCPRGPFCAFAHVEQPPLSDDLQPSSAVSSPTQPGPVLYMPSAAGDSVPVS
Technique: RNA Bind-n-Seq
Molecule type: RNA
Matrix: in vitro
Concentration: 100 nM
Setting: RNA with constant flanks, vertebrate orthologous sites, ends assumed
Reference: input RNA pool
Reading: higher = stronger binding
With `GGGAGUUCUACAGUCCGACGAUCCACAUCUGGUGAUAUUUGGCCUGGCCUUUCAGCAUAUGAUAAUAGUCCCAGAUCACCCCAUAGUCCUUCACCAAUUGCUACACCACCUAGUCAGAGUUCAUCUUGCUCUGAUGCCCCCAUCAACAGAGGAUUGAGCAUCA` the bound/input enrichment was 1.15 ratio.
`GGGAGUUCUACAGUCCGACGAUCUUCAGGCACAACUGACAGGUUCACAGCAUUCCUUACCUAGUUAUUUUUCAAAUGCAAGUGUAGCUGAUUUUCAGGAUACAACCAGGCAGCCAUCUUUAUCUUGUAACCCAAUUGGAGAUUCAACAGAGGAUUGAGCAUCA` gave a bound/input enrichment of 2.96 ratio.
`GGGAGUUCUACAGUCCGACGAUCUACCUCCUGAACUUCUAGCUUUCAAGUUGUGGCUGUUUUAGAUACUGGUUUUCUUUUCUUUAGAAUUUUUCCCUGUUUCCCACCUUCUCUUCCCCUGUUCCCAAGGUCUGACUCAUGGAUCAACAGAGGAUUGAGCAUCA` has a bound/input enrichment of 1.64 ratio.
The bound/input enrichment of `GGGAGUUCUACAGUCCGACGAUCAUUUAGAAUGUUAAUAAAUUGCUCUGAGUUUCCUCAAGUCCAUUUUGUAAGAUCAGACCAUAGGUGGGUGUUGUUUCUUUUAAGUGUGUGUACUGUGUCCAAUGUUACAUUUUUAGAAGUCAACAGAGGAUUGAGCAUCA` is reported as 2.67 ratio.
`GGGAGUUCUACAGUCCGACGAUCAGAAAAUUUUAACCAAGAAUCAGAAGGUAGAAAUUCAGGACCAUGGUUGUCUUCUUCACUUAGAAAUAGAUGCACACCUUUGUUCUCGAGAAGGAGGCGAGAGGGAAGGGAUGAGUCUUCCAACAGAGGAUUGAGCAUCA` has a bound/input enrichment of 0.762 ratio.
With `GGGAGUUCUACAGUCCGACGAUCGGGCAGCCAGUGGGGGAAUCCCCUACCUUGGCCAUGCGUCCCCUCCCUGCCACCUGCCCUUAGUUAUUUUUUUUUAACCACCACAUGAUUAUGGUCGGCGCUGCCUCCCCCGACCCACUCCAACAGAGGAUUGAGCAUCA` the bound/input enrichment was 2.6 ratio.
With `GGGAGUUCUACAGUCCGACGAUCUGUAUGUGUGUAUGUGUGGGUUUGGGGGGAGGGGGCAAGACAGGUGGAAUCUCUAGGGUGUAUGGUAGUAGGAAGCACAGUGCUAAGUGGGCCUUUAUGUUAAACACAUCUGGGAGUGUCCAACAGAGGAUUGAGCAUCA` the bound/input enrichment was 0.721 ratio.
The bound/input enrichment of `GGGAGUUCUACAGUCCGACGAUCGAAAGUCCCCAUUGUCACUGAGAACCACCAAAUCUGACUUUUACAUUUGGUCUCAGAAUUUAAGUUCCUGCCCUGUUGGGUUUUUUUUUUUUUUUAAACAGUUUUCAAAAGUUCUUAAAGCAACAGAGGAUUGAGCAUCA` is reported as 0.75 ratio.

Set 2
Target: CCND3, cyclin fold, Cln2 fusion (human)
Technique: yeast growth competition, sequencing
Matrix: yeast
Setting: weak parent motif
Reference: not given
Reading: higher = stronger binding
Starting sequence: PKMYT1 docking peptide (human); SFEPRNLLSLFED
`SFEPRNLESLFED [L8E]`: “normalised enrichment score” -0.343.
`SFENRNLLSLFED [P4N]`: “normalised enrichment score” 0.13.
`SFEPRNLLSPFED [L10P]`: “normalised enrichment score” 0.0588.
Under “normalised enrichment score”, `SFEPFNLLSLFED [R5F]` is recorded as 0.103.
`SFEPRNLLVLFED [S9V]`: “normalised enrichment score” 0.125.
For `TFEPRNLLSLFED [S1T]`, “normalised enrichment score” read 0.0977.
`SFEPRNALSLFED [L7A]` — result for “normalised enrichment score”: 0.138.
For `SFEPRNLLSLTED [F11T]`, “normalised enrichment score” read 0.0812.
Under “normalised enrichment score”, `SFEPRNLLSLFEQ [D13Q]` is recorded as 0.0743.
`SFEPRNLLSWFED [L10W]` — result for “normalised enrichment score”: 0.151.
For `DFEPRNLLSLFED [S1D]`, “normalised enrichment score” read 0.103.
`SFEPRNVLSLFED [L7V]` — result for “normalised enrichment score”: 0.0752.
Under “normalised enrichment score”, `SFEPRELLSLFED [N6E]` is recorded as 0.137.
`SFDPRNLLSLFED [E3D]`: “normalised enrichment score” 0.101.
For `SFEPRNLWSLFED [L8W]`, “normalised enrichment score” read 0.0272.
`SFEPRPLLSLFED [N6P]` — result for “normalised enrichment score”: 0.0684.
Under “normalised enrichment score”, `SFEPRNLLSLQED [F11Q]` is recorded as 0.155.
For `SFEPRNLLSAFED [L10A]`, “normalised enrichment score” read 0.0707.
Under “normalised enrichment score”, `SFEPRNLLSLFND [E12N]` is recorded as 0.0546.
`SFEPRNLLSLKED [F11K]` — result for “normalised enrichment score”: 0.114.
`SFEPRNLLSLFPD [E12P]`: “normalised enrichment score” 0.0818.
`SFEPRNLPSLFED [L8P]` — result for “normalised enrichment score”: 0.117.
Under “normalised enrichment score”, `SIEPRNLLSLFED [F2I]` is recorded as 0.0691.
Under “normalised enrichment score”, `SFEPRNLLSLFEF [D13F]` is recorded as 0.111.
Under “normalised enrichment score”, `SFEPRNLLSLFVD [E12V]` is recorded as 0.0476.

Set 3
Target: RNA binding protein fox-1 homolog 2, RRM domain, GST-SBP tag (RBFOX2, Homo sapiens, UniProt O43251-10, residues 100-194)
Technique: RNA Bind-n-Seq
Molecule type: RNA
Matrix: in vitro
Concentration: 365 nM
Setting: natural RNA segment, single round, ends assumed
Reference: no-protein control
Reading: higher = stronger binding
Target sequence (chain): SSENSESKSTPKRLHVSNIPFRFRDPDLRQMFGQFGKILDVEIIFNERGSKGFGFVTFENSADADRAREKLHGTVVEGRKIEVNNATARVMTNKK
`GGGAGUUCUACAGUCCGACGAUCAAAAGACAACUUCCUUUUUCUUCAGCUCCCACACCCCAUUUUUCUUAGCAGACUGCAGUCAAUCCACAUUCAAUAAAAAGUAUAUAAUGCCCAUUUUUAUAUGCACGUUUUGGAAUUCUCGGGUGCCAA`: “RBNS enrichment (R)” 0.956.
`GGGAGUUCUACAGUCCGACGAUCCUGGAAGACCAUUCCAACUUGGACGCGUUACCAUGAGAGCAUAUCCUAUCCAACCGUACUAACGUGGACACCCUACACCUCCCCUCAGAACUUCAAAAGGGCAAGAUCUUUGGAAUUCUCGGGUGCCAA`: “RBNS enrichment (R)” 0.327.
Under “RBNS enrichment (R)”, `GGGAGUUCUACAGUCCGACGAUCAGUGGAGCACUGGCAUCUCGAGCUUGGGAAGGUCUUUAGAAUUAGGCUCUCUGGAGCAGGGCCUGUAGUGUUAACAAGUUCUCUGGGUGGUUCUAUUCUGAGCACCCCUGUGGAAUUCUCGGGUGCCAA` is recorded as 0.702.
For `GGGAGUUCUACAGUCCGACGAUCUUAAUUUCCAUUUUAAGGUGGUGUCUGUGCAGCCGUGUCCCUGGUUCUGGCUGUUUUCUGUCUGGUGGAGAAGCCUGCUUGUCAAAGCUGACCUCUUAGAGCCGCACAGAUGGAAUUCUCGGGUGCCAA`, “RBNS enrichment (R)” read 0.228.
Under “RBNS enrichment (R)”, `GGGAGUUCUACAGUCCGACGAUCCUGCUGGAGUCAGACUUACAAAAGCCUUAAGCGGAAAGUGUCCAGACCAGGCUGAGUCAGUAAAGGAGGCGCGGGCCUCGACGCCCACGCUGGCAGCUUUGACAGAAACUUGGAAUUCUCGGGUGCCAA` is recorded as 0.328.
For `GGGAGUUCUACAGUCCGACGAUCUGUAUCAGAUCCAAAGCUCUAUUGUACAGCAAAUUAUUCUUCAAAGUGAUUAUAACCAGUUACAACCUGUAUUUCUUUUUGCAGCCAGCACAGUGUGAACCAACUCAGACUGGAAUUCUCGGGUGCCAA`, “RBNS enrichment (R)” read 0.32.
Under “RBNS enrichment (R)”, `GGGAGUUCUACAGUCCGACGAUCGCUAGCUCUGUCCAGAUAGGACCUGAGGAAGCCACCUUGUAGGGAGCCUUGUGUGUGGCCAGGGACACCUGGCUUCCCUCCCUACUGCCAAAUAAACCCCUAUGAACCUUUGGAAUUCUCGGGUGCCAA` is recorded as 0.289.
`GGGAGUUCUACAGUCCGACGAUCUUAGGUGCCUUUGCGGAUGACCUCAUUUUGACGUUGAAAAAAUGAUUUUUUAAUAUGUGAACACUGCAAAAAUGUGUUUAAAUUAUCUUUUUUAAAACCUAUUCAGGAUUUGGAAUUCUCGGGUGCCAA` — result for “RBNS enrichment (R)”: 0.572.

Set 4
Target: Sal-like protein 4, full length isoform A (SALL4, Homo sapiens, UniProt Q9UJQ4, residues 1-1053)
Sequence of UniProt Q9UJQ4 (whole entry, looked up): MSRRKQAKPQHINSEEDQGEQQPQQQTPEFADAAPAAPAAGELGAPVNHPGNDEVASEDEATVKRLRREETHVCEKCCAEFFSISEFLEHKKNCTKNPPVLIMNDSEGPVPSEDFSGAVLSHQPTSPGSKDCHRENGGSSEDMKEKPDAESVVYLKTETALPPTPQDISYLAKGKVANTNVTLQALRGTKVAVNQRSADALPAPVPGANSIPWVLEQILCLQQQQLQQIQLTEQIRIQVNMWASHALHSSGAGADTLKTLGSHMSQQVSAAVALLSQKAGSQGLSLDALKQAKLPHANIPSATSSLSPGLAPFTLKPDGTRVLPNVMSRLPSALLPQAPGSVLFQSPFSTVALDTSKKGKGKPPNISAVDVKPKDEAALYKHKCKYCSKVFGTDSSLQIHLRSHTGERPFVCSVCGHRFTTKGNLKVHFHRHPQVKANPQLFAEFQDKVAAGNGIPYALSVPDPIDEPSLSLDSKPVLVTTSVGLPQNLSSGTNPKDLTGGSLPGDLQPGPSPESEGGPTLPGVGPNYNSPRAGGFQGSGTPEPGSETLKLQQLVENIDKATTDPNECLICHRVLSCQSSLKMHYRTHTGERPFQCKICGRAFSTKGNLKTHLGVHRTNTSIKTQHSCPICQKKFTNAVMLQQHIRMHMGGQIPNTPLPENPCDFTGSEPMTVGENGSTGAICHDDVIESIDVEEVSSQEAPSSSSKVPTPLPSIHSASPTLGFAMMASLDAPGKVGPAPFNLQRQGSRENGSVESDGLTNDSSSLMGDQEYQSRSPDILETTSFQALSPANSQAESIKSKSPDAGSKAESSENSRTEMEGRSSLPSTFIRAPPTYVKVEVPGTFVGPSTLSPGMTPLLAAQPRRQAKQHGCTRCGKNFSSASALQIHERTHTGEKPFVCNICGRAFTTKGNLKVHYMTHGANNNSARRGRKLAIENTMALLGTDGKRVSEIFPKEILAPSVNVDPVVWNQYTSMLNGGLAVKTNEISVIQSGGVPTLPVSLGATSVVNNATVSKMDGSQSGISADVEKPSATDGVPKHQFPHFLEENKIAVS
Technique: universal PBM
Molecule type: double-stranded DNA, one strand shown
Matrix: in vitro
Concentration: 600 nM
Setting: 8-mer, flanks averaged, mean of replicates
Reading: higher = stronger binding
The E-score of `CCCCGACG` is reported as -0.331.
With `GCTTTTGA` the E-score was -0.0672.
With `GCCGCATA` the E-score was 0.0384.
`ATACTAAT` has an E-score of 0.342.
For `TAGTAATA`, the E-score was 0.413.
`CCGATACG` has an E-score of -0.205.
The E-score of `AGCCAACA` is reported as -0.0615.
`CGAGAACA` has an E-score of -0.0995.
With `CACCAACA` the E-score was -0.136.
`AACCGAAA` gave an E-score of 0.147.
For `CATAAGCG`, the E-score was 0.0643.
The E-score of `GAAAACTC` is reported as 0.00342.
For `GGAATTTA`, the E-score was 0.111.
With `CGTTAGAA` the E-score was 0.179.
For `AAAGCGCG`, the E-score was -0.175.
`CCCTTCGA` gave an E-score of -0.293.

Set 5
Target: Histone acetyltransferase KAT6A, winged helix 1, GST fusion (KAT6A, Homo sapiens, UniProt Q92794, residues 1-85)
Technique: protein binding microarray
Molecule type: double-stranded DNA, one strand shown
Matrix: in vitro
Concentration: not given
Setting: 8-mer, flanks averaged, mean of 2 arrays, mostly near background
Reference: not given
Reading: higher = stronger binding
Residues (chain): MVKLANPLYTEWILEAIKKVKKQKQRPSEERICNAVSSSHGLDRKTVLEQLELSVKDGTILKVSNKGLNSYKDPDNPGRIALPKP
`ATCAGTAC` has an E-score of -0.0604.
For `AGATCAAC`, the E-score was -0.193.
With `AATTAACA` the E-score was -0.182.
`CGCGGGAC` has an E-score of 0.379.
With `GTTGCAAC` the E-score was -0.0699.
The E-score of `GGGCCCGA` is reported as 0.201.
`AATTGACG` has an E-score of 0.0199.
With `CGCTCGAG` the E-score was 0.206.
`ATATATTG` gave an E-score of -0.00182.
For `GGGTACTA`, the E-score was -0.0392.
For `ATAATAGG`, the E-score was -0.123.
For `GTATAAAC`, the E-score was -0.0419.
The E-score of `GTATATTA` is reported as -0.104.
`TCGTTACA` gave an E-score of -0.0502.
The E-score of `CGATTAGA` is reported as -0.0364.
The E-score of `AGTAGCTC` is reported as -0.0359.
The E-score of `GCTTAGCA` is reported as 0.109.
For `CGGTATAG`, the E-score was 0.226.
For `CGTGGCAG`, the E-score was -0.0918.
`ACTGGCGG` has an E-score of 0.252.

A few entries again (set 2):
Under “normalised enrichment score”, `SFEPRNLLSLQED [F11Q]` is recorded as 0.155.
`SFEPRNLLSLFPD [E12P]`: “normalised enrichment score” 0.0818.
For `SFEPRNLLSLTED [F11T]`, “normalised enrichment score” read 0.0812.
`SFEPRNLPSLFED [L8P]` — result for “normalised enrichment score”: 0.117.
`SFENRNLLSLFED [P4N]`: “normalised enrichment score” 0.13.
`SFEPRNLLVLFED [S9V]`: “normalised enrichment score” 0.125.
`SFDPRNLLSLFED [E3D]`: “normalised enrichment score” 0.101.
For `DFEPRNLLSLFED [S1D]`, “normalised enrichment score” read 0.103.
For `TFEPRNLLSLFED [S1T]`, “normalised enrichment score” read 0.0977.
`SFEPRNALSLFED [L7A]` — result for “normalised enrichment score”: 0.138.
